Measured values pooled from the literature.
Each line is one published result; not all experiments were run side by side. Values joined by “and” are separate records of one study, mostly repeats; a detail may differ. ± gives the spread as reported.
UniProt P31749, sequence (whole entry, looked up): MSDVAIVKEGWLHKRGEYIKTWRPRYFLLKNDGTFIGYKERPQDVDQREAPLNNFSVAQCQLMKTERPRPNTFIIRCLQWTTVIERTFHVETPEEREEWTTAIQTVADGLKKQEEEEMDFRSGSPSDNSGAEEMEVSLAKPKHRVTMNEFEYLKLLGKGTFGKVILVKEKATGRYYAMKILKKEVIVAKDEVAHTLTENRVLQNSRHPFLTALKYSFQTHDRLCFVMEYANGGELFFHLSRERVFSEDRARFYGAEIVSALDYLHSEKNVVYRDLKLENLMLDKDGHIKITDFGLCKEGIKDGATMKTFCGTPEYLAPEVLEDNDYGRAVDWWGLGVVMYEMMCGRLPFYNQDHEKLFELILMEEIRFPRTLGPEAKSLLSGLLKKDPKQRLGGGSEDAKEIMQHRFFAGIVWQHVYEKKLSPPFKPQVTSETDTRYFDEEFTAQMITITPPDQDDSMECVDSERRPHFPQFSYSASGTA
UniProt P10721, sequence (whole entry, unmodified, looked up): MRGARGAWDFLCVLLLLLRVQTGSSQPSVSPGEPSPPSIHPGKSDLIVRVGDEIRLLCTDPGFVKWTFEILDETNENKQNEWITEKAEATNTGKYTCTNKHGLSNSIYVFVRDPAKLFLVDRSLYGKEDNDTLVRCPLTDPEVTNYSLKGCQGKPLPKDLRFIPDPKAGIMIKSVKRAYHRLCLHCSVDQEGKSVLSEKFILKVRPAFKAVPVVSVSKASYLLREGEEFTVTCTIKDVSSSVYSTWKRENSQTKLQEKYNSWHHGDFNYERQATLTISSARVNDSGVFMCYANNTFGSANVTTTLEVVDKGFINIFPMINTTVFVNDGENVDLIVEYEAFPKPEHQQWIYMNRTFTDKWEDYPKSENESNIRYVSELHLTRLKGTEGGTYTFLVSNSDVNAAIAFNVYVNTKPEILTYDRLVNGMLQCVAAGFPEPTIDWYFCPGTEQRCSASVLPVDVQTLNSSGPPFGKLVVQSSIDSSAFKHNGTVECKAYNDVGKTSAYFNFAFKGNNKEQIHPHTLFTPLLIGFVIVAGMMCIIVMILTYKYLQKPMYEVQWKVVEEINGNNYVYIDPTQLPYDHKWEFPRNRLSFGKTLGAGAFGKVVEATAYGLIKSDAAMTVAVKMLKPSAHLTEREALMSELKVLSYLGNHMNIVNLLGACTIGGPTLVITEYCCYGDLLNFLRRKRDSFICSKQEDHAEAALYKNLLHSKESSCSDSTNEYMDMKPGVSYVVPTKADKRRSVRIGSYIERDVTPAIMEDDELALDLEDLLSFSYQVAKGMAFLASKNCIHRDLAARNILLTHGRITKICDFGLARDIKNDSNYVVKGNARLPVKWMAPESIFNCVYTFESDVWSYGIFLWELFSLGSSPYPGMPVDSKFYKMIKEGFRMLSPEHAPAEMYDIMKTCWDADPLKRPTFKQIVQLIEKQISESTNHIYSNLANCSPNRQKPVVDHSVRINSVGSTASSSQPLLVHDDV
UniProt P07948, sequence (whole entry, looked up): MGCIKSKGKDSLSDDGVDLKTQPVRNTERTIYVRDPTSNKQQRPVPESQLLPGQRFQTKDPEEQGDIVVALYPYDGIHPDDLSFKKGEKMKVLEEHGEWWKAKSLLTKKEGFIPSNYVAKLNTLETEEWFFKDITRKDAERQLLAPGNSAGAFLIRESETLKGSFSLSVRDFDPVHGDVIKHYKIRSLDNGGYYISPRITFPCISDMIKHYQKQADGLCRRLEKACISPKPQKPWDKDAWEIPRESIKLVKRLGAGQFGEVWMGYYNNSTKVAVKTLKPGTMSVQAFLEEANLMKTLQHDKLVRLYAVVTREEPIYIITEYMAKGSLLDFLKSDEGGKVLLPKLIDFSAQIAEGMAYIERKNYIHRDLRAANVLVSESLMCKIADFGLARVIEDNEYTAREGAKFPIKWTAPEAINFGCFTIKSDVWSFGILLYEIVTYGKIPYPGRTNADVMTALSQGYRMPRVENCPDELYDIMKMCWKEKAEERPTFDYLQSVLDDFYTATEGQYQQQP
UniProt P11362, sequence (whole entry, unmodified, looked up): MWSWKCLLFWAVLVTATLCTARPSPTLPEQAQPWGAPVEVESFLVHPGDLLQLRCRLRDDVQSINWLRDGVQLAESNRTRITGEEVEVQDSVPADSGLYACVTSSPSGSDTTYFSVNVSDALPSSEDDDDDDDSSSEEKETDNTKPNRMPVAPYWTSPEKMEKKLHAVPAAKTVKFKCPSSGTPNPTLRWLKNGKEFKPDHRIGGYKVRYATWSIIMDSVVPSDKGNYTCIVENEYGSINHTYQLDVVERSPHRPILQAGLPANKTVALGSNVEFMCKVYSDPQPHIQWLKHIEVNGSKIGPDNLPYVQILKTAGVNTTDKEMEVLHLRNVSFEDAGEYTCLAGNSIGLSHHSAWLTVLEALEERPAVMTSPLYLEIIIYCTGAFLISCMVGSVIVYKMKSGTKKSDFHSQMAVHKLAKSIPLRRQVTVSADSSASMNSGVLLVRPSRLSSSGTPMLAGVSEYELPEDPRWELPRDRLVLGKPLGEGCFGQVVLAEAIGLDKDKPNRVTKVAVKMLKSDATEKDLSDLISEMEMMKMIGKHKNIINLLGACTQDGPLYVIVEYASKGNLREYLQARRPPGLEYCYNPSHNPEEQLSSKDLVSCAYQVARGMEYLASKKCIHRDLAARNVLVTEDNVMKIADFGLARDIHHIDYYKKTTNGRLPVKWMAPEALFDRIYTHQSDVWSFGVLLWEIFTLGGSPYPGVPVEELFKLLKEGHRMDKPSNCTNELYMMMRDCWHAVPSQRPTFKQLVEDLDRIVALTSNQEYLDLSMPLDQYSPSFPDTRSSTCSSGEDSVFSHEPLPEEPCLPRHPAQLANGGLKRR
UniProt P35367, sequence (whole entry, looked up): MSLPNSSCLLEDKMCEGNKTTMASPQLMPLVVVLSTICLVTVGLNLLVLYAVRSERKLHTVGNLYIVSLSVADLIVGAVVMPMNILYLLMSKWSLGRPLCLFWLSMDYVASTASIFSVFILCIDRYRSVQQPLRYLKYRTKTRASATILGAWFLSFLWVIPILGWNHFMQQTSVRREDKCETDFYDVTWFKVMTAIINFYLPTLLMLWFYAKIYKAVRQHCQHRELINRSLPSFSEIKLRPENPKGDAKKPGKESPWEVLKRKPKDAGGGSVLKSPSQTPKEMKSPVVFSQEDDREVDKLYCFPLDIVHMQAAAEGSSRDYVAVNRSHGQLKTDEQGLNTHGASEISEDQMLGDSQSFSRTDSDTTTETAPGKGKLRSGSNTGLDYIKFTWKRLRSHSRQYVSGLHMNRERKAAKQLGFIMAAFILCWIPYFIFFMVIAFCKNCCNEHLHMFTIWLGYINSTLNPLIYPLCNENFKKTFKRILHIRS

| SMILES | target or system | test | system | conditions | scale | quantity | value |
| --- | --- | --- | --- | --- | --- | --- | --- |
| Cc1cc(-c2ccc3ccccc3c2)nnc1NCCN1CCN(C)CC1 | – | metabolic stability | human, liver microsomes | 30 min | – | compound remaining | 91.1% |
| O=C1NC(=O)c2c1c1cc(F)c[n+]3c1c1c2c2cc(O)ccc2[n]1[Ru-4]312([N]=C=S)[S+]3CC[S+]1CC[S+]2CC3 (stereo not drawn) | FGFR1 (Homo sapiens, UniProt P11362, V561M) | enzyme activity | – | 100 nM, human enzyme, with: 10 µM ATP | relative to: untreated | remaining activity | 16% |
| N#[11C]c1ccc(-c2csc(NN=C3CCCC3)n2)cc1 | – | – | C57BL/6 mouse, male | intravenous, 3 MBq, 1 min | – | uptake in stomach with contents | 2.42 ± 0.52 %ID/g |
| CC(C)(C)C(=O)OCOP(=O)(OCOC(=O)C(C)(C)C)C1CCCN(O)C1=O (stereo not drawn) | SNB-75 | – | – | – | – | CC50 | > 100 µM |
| CS(C)(=O)=Nc1ccc(-c2ccc(-c3nc4cc(O[C@@H]5CO[C@H]6[C@@H]5OC[C@H]6O)[nH]c4cc3F)cc2)cc1 | KIT (Homo sapiens, UniProt P10721, V654A) | enzyme activity, inhibitor | – | 10 µM | – | inhibition | -9% |
| COc1cnc2cccc(N3CCc4c(cc(Cn5ccnc5)cc4-c4cn(C)nc4C(F)(F)F)C3=O)c2c1 | – | – | BALB/c nude mice, MV4-11 xenograft | intraperitoneal, 75 mg/kg, day 17 | – | body weight | 22.4 g and 22.2 g and 22.6 g and 22.5 g and 21.1 g |
| CC(C)[C@@H]1NC(=O)CNC(=O)[C@H](CC(N)=O)NC(=O)[C@H](CCCNC(=N)N)NC(=O)[C@H](Cc2ccc(O)cc2)NC(=O)[C@H](C(C)C)NC(=O)[C@@H](NC(=O)[C@@H](NC(=O)[C@H](CC(N)=O)NC(=O)[C@H](Cc2c[nH]c3ccccc23)NC(=O)[C@H](C)NC(=O)[C@H](Cc2ccccc2)NC(=O)CNC(=O)[C@H](CCCCN)NC(=O)[C@H](Cc2ccccc2)NC(=O)[C@H](Cc2ccccc2)NC(=O)[C@H](CCCCN)NC(=O)OCC2c3ccccc3-c3ccccc32)C(C)C)CSSC[C@@H](C(=O)N[C@@H](Cc2c[nH]cn2)C(=O)N[C@@H](CCCNC(=N)N)C(=O)N[C@@H](CCCNC(=N)N)C(=O)N[C@@H](C)C(=O)N[C@@H](CC(N)=O)C(N)=O)NC(=O)[C@H](C(C)C)NC(=O)[C@H](CCCNC(=N)N)NC1=O | – | – | ICR mouse, blood | intramammary, 10 mg/kg, day 5, 3 d dosing | – | MCV | 40.9 ± 0.54 fL |
| C#Cc1c(F)ccc2cc(O)cc(-c3ncc4c(N5CC6CCC(C5)N6C(=O)OC(CC)OC(=O)CCC)nc(OC[C@@]56CCCN5C[C@H](F)C6)nc4c3F)c12 (stereo partly drawn) | – | measured: prodrug | mouse whole blood | 1 µM | – | t1/2 | 1.75 min |
| COc1ccccc1-c1n[nH]c2nc(NC3CCN(C(=O)Cc4ccc(F)cc4F)CC3)ncc12 | – | bead binding, competition bead pull-down, measured: LINJ.06.1110 | Leishmania donovani axenic amastigote extract | 10 µM | relative to: vehicle | relative abundance | 1.24 |
| CC[C@H](C)[C@H](NC(=O)[C@H](C)NC(=O)[C@H](CCCCN)NC(=O)[C@H](CC(C)C)NC(=O)[C@@H](N)Cc1ccccc1)C(=O)N[C@@H](CCCCN)C(=O)N[C@@H](CCCCN)C(=O)N[C@@H](Cc1ccccc1)C(=O)NCC(=O)N[C@@H](CCCCN)C(=O)N[C@@H](CCC(=O)O)C(=O)N[C@@H](Cc1ccccc1)C(=O)N[C@@H](CCCCN)C(=O)N[C@@H](CCCCN)C(=O)N[C@H](C(=O)NCC(=O)N[C@@H](C)C(=O)N[C@@H](CCCCN)C(=O)N[C@@H](CC(C)C)C(=O)N[C@@H](CCCCN)C(=O)O)[C@@H](C)CC | – | – | human red blood cells | 16 mg/L, 1 h | – | hemolysis | -0.0408% and 0.449% |
| N=C(N)NCCC[C@@H](NC(=O)[C@H](N)Cc1c[nH]c2ccccc12)C(=O)N[C@H](CCCCN)C(=O)N[C@H](Cc1c[nH]c2ccccc12)C(=O)N[C@H](CCCNC(=N)N)C(=O)N[C@H](CCCCN)C(=O)N[C@H](Cc1c[nH]c2ccccc12)C(=O)N[C@H](CCCNC(=N)N)C(=O)N[C@H](CCCCN)C(=O)N[C@H](Cc1c[nH]c2ccccc12)C(=O)N[C@H](CCCNC(=N)N)C(=O)N[C@H](CCCCN)C(N)=O | – | – | mouse | intraperitoneal, 40 mg/kg single dose, day 1 | – | survival | 75% |
| CCN(C(=O)[C@H](C)N(Cc1ccccc1)C(C)=O)[C@@H](C)C(=O)N(Cc1c[nH]c2cc(Cl)ccc12)[C@@H](C)C(=O)N(CC)[C@@H](C)C(=O)N(CCC(C)(C)C)[C@@H](C)C(N)=O | – | – | PAMPA | 10 µM, 4 h, pH 7.4 | – | Papp | 3.4 nm/s |
| C=Cc1c(C)c2cc3nc(c(CC(=O)[O-])c4[n-]c(cc5nc(cc1[n-]2)C(C)=C5CC)c(C)c4C(=O)[O-])C(CCC(=O)[O-])C3C.[Cu+2].[Na+].[Na+].[Na+] (stereo not drawn) | – | – | Wistar rat, female | oral, 1000 mg/kg daily, 28 days | – | serum cholesterol | 39.2 ± 16.6 mg/dL |
| CN[C@H](CC(C)C)C(=O)N[C@H]1C(=O)N[C@@H](CC(N)=O)C(=O)N[C@H]2C(=N)N[C@H]3C(=O)N[C@H](C(=O)N[C@H](C(=O)NCCCNC(=N)N)c4cc(O)cc(O)c4-c4cc3ccc4O)[C@H](O)c3ccc(c(Cl)c3)Oc3cc2cc(c3O[C@@H]2O[C@H](CO)[C@@H](O)[C@H](O)[C@H]2O[C@H]2C[C@](C)(NCc3ccc(-c4ccc(Cl)cc4)cc3)[C@H](O)[C@H](C)O2)Oc2ccc(cc2Cl)[C@H]1O | – | – | mouse | intravenous, 25 mg/kg | – | half-life | 5 h |
| N[C@H](C(=O)N1CCCC1)C1CCN(c2nccc3c(-c4ncc(Cl)cc4Cl)cccc23)CC1 | HRH1 (Homo sapiens, UniProt P35367) | functional response, antagonist | – | 10 µM | – | inhibition | 15% |
| CN(C)[C@H]1C[C@@]23CC[C@@]4(O2)C(=CC[C@]2(C)[C@@H](c5ccc6ccncc6c5)CC[C@H]24)C=C3[C@@H](O)[C@@H]1O | AKT1 (Homo sapiens, UniProt P31749) | ATP probe labelling, inhibitor, KiNativ profiling | – | 1 µM | – | inhibition | -6.6% |
| CCCCCCCCCCCCCC(=O)N[C@H](CCN)C(=O)N[C@@H]1C(=O)N[C@@H](CCN)C(=O)N[C@@H](CC(C)C)C(=O)N[C@@H](CCN)C(=O)N[C@H](Cc2ccccc2)C(=O)N[C@@H](CC(C)C)C(=O)N[C@@H](CCN)C(=O)N[C@H](CCN)C(=O)N[C@@H](C(C)C)C(=O)N[C@@H](CC(=O)O)C(=O)O[C@@H]1C | – | – | rat, plasma | subcutaneous, 10 mg/kg | – | MRT(0-inf) | 18 h |
| CN1Cc2cc(Cl)ccc2-n2c(nnc2C2CCN(c3cccc([18F])n3)CC2)C1 | – | PET two-tissue compartment model | rhesus monkey, thalamus | intravenous, dose not given, 90 min scan, baseline scan | – | total volume of distribution | 1.13 ± 0.34 mL/cm3 |
| CC[C@H](C)[C@H](NC(=O)[C@H](CCCCN)NC(=O)CNC(=O)[C@H](CC(C)C)NC(=O)[C@H](Cc1ccccc1)NC(=O)[C@H](CCCCN)NC(=O)[C@H](CO)NC(=O)[C@H](Cc1ccccc1)NC(=O)[C@H](Cc1c[nH]c2ccccc12)NC(=O)[C@H](CCC(N)=O)NC(=O)[C@@H](NC(=O)[C@H](Cc1ccccc1)NC(=O)CCCCCNC(=O)CN1CCN(CC(=O)O)CCN(CC(=O)O)CCN(CC(=O)O)CC1)C(C)C)C(=O)N[C@@H](CCC(=O)O)C(=O)N1CCC[C@H]1C(=O)N[C@H](CC(=O)O)C(=O)N[C@H](C(=O)N[C@@H](CO)C(=O)N[C@@H](CCC(N)=O)C(=O)N[C@H](C(=O)N[C@@H](CCC(N)=O)C(=O)N[C@@H](CC(=O)O)C(=O)N1CCC[C@H]1C(=O)N[C@@H](CC(N)=O)C(=O)N[C@@H](CC(=O)O)C(=O)N[C@@H](CCC(N)=O)C(=O)N[C@@H](Cc1ccc(O)cc1)C(=O)N[C@@H](CCC(=O)O)C(=O)N1CCC[C@H]1C(=O)N[C@@H](Cc1ccccc1)C(=O)O)C(C)C)C(C)C [copper-64 labelled] | – | – | female mice, EMT6 tumour-bearing, spleen | 2 h, uncleavable control tracer, vehicle-treated | – | tissue uptake | 2.38 ± 0.19 %ID/g |
| CC(=O)NCCCC[C@@H]1NC(=O)[C@H](Cc2c[nH]c3c(C)cccc23)NC(=O)[C@H]([C@@H](C)O)NC(=O)[C@H](CC(N)=O)NC(=O)[C@@H](NC(C)=O)C(C)(C)SSC(C)(C)[C@@H](C(=O)N[C@@H](Cc2ccc(OCCN)cc2)C(=O)N[C@@H](Cc2ccc3ccccc3c2)C(=O)NC2(C(=O)N[C@@H](CCC(=O)O)C(=O)N[C@@H](CC(N)=O)C(=O)N[C@@H](Cc3cccnc3)C(=O)N(C)CC(N)=O)CCOCC2)NC1=O | – | equilibrium dialysis | rabbit, plasma | 0.01 µM | – | plasma protein binding | 70.3 ± 1.8% |
| CC(C)[C@H]1NC(=O)C[C@H]2/C=C/CCSSC[C@@H](NC1=O)C(=O)N[C@H](Cc1cccc3ccccc13)C(=O)NCC(=O)O2 | Tyrosine-protein kinase Lyn, isoform B (LYN, Homo sapiens, UniProt P07948) | – | – | 10 µM | – | inhibition | -0.436% |
| O=C1NC2(CC2)COc2ncc(F)cc2[C@H]2COCCN2c2ccn3ncc1c3n2 | – | – | Sprague-Dawley rat, female, liver | oral, 5 mg/kg/day, 4 weeks dosing, end of recovery | – | organ-to-body weight ratio | 2.83 ± 0.209% |
| CC[C@H](C)[C@H](NC(=O)[C@H](CO)NC(=O)[C@H](Cc1ccc(O)cc1)NC(=O)[C@H](Cc1ccc(O)cc1)NC(=O)[C@H](CC(N)=O)NC(=O)CNC(=O)[C@H](CO)NC(=O)[C@H](Cc1ccc(O)cc1)NC(=O)[C@H](CO)NC(=O)[C@H](CO)NC(=O)[C@H](CC(N)=O)NC(=O)COCCOCCNC(=O)CN1CCN(CC(=O)O)CCN(CC(=O)O)CCN(CC(=O)O)CC1)C(=O)N[C@@H](CC(C)C)C(N)=O [copper-64 labelled] | – | dynamic PET | tamoxifen-induced PDAC mouse model, metastases | 12.5 min, CLDN4-expressing tumours | – | maximum metastasis uptake | 19.1 %IA/cc |
| NC1CCN(C(=O)Oc2ccc(C3CCCC4(C3)OOC3(O4)C4CC5CC(C4)CC3C5)cc2)CC1 (racemic) | – | – | male ICR mice, plasma | oral, 50 mg/kg | – | MRT(0-inf) | 9.83 h |

A few entries again:
| SMILES | target or system | test | system | conditions | scale | quantity | value |
| --- | --- | --- | --- | --- | --- | --- | --- |
| CN1Cc2cc(Cl)ccc2-n2c(nnc2C2CCN(c3cccc([18F])n3)CC2)C1 | – | PET two-tissue compartment model | rhesus monkey, thalamus | intravenous, dose not given, 90 min scan, baseline scan | – | total volume of distribution | 1.13 ± 0.34 mL/cm3 |
| CN[C@H](CC(C)C)C(=O)N[C@H]1C(=O)N[C@@H](CC(N)=O)C(=O)N[C@H]2C(=N)N[C@H]3C(=O)N[C@H](C(=O)N[C@H](C(=O)NCCCNC(=N)N)c4cc(O)cc(O)c4-c4cc3ccc4O)[C@H](O)c3ccc(c(Cl)c3)Oc3cc2cc(c3O[C@@H]2O[C@H](CO)[C@@H](O)[C@H](O)[C@H]2O[C@H]2C[C@](C)(NCc3ccc(-c4ccc(Cl)cc4)cc3)[C@H](O)[C@H](C)O2)Oc2ccc(cc2Cl)[C@H]1O | – | – | mouse | intravenous, 25 mg/kg | – | half-life | 5 h |
| C#Cc1c(F)ccc2cc(O)cc(-c3ncc4c(N5CC6CCC(C5)N6C(=O)OC(CC)OC(=O)CCC)nc(OC[C@@]56CCCN5C[C@H](F)C6)nc4c3F)c12 (stereo partly drawn) | – | measured: prodrug | mouse whole blood | 1 µM | – | t1/2 | 1.75 min |
| CC[C@H](C)[C@H](NC(=O)[C@H](C)NC(=O)[C@H](CCCCN)NC(=O)[C@H](CC(C)C)NC(=O)[C@@H](N)Cc1ccccc1)C(=O)N[C@@H](CCCCN)C(=O)N[C@@H](CCCCN)C(=O)N[C@@H](Cc1ccccc1)C(=O)NCC(=O)N[C@@H](CCCCN)C(=O)N[C@@H](CCC(=O)O)C(=O)N[C@@H](Cc1ccccc1)C(=O)N[C@@H](CCCCN)C(=O)N[C@@H](CCCCN)C(=O)N[C@H](C(=O)NCC(=O)N[C@@H](C)C(=O)N[C@@H](CCCCN)C(=O)N[C@@H](CC(C)C)C(=O)N[C@@H](CCCCN)C(=O)O)[C@@H](C)CC | – | – | human red blood cells | 16 mg/L, 1 h | – | hemolysis | -0.0408% and 0.449% |
